{"data": "Assay results pooled from the literature", "ORF1 3C-like protease": "ORF1, 3C-like protease (Southampton virus, UniProt Q04544)", "B1": "VP35 1-215 (Zaire ebolavirus, UniProt Q05127); chain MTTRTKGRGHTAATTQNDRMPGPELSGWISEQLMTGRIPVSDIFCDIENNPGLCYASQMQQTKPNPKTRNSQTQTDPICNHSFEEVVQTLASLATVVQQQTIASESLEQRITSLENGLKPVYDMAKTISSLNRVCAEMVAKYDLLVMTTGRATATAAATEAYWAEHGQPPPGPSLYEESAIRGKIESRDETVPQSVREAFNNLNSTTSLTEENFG", "B2": "env gp140 (HIV-2); chain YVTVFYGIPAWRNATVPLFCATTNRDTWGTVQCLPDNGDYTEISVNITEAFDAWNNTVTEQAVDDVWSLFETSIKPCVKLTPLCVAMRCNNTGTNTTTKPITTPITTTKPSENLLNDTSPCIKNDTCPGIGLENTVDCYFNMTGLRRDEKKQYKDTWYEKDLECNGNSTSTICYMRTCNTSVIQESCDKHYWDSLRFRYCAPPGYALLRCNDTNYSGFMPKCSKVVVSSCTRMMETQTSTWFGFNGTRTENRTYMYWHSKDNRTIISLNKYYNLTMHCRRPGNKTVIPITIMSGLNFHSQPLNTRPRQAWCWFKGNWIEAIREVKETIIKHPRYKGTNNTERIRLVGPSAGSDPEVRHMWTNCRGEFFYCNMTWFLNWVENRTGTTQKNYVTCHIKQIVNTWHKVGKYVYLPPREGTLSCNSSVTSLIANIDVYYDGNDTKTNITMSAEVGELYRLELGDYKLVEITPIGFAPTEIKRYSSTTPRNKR", "B3": "E2 DNA-binding domain 279-365 (HPV16, UniProt P03120); chain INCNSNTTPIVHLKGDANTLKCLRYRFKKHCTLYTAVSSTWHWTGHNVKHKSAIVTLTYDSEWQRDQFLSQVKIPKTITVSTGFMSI", "B4": "RB1 pocket domain A-B, GSGS linker 372-577 (UniProt P06400); chain HTPVRTVMNTIQQLMMILNSASDQPSENLISYFNNCTVNPKESILKRVKDIGYIFKEKFAKAVGQGCVEIGSQRYKLGVRLYYRVMESMLKSEEERLSIQNFSKLLNDNIFHMSLLACALEVVMATYSRSTSQNLDSGTDLSFPWILNVLNLKAFDFYKVIESFIKAEGNLTREMIKHLERCEHRIMESLAWLSDSPLFDLIKQSKGSGSTSLSLFYKKVYRLAYLRLNTLCERLLSEHPELEHIIWTLFQHTLQNEYELMRDRHLDQIMMCSMYGICKVKNIDLKFKIIVTAYKDLPHAVQETFKRVLIKEEEYDSIIVFYNSVFMQRLKTNILQYAST", "B5": "BHRF1 1-160 (Epstein-Barr virus, UniProt P03182); chain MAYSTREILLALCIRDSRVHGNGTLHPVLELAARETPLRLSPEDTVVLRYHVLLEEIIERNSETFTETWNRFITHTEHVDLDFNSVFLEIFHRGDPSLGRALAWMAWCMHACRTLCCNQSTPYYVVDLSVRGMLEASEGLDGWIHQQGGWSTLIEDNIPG", "note": "Compare with care: the assays were run in different laboratories. ± marks the error that the study gave. Where no end group is shown, it is not given here. * marks the point of attachment.", "chain of UniProt Q91XE4 (whole entry, looked up)": "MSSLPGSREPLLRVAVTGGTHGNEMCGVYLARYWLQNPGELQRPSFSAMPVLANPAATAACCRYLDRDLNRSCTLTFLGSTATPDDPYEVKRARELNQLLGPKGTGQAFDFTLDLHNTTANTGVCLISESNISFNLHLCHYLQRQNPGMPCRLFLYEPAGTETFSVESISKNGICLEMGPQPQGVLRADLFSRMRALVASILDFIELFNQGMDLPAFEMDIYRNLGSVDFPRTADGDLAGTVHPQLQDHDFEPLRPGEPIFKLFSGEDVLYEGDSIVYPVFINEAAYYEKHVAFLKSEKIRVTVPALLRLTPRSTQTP", "chain of UniProt Q96AX9 (whole entry, looked up)": "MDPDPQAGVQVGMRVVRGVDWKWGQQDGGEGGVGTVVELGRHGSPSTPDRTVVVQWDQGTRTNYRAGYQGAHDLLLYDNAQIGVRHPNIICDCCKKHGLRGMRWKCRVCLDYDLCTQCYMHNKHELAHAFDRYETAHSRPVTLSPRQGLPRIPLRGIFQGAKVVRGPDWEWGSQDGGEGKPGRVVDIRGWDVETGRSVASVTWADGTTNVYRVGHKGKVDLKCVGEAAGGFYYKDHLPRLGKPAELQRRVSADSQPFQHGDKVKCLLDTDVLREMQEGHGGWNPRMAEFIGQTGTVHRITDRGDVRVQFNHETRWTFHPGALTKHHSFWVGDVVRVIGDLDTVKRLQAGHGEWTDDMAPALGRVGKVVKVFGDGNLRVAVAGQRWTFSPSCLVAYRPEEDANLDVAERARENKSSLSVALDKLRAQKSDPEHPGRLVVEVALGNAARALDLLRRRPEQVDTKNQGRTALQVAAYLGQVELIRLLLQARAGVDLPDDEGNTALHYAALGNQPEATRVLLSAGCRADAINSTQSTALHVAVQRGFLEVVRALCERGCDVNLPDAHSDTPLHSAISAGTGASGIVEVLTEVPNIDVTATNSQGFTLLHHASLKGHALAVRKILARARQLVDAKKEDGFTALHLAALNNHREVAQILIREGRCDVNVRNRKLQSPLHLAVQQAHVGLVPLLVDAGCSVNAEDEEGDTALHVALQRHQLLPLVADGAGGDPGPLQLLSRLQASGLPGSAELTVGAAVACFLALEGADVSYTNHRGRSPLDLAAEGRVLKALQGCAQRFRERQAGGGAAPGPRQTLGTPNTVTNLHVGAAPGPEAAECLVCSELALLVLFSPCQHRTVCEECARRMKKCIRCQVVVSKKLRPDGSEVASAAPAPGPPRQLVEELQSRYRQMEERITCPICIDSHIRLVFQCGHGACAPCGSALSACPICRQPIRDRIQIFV"}
{"Molecule": "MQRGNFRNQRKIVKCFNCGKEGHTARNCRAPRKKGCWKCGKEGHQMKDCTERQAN (NCp7 mature nucleocapsid (HIV-1))", "target or system": "HIV-1 reverse transcriptase p66/p51 (HIV-1)", "assay": "fluorescence titration", "measurement": "Kd", "result": "30 nM"}
{"Molecule": "B1 (VP35 1-215)", "target or system": "MIB2 1-836 (Homo sapiens, UniProt Q96AX9)", "assay": "ITC", "measurement": "molecule per partner", "result": "0.8 ± 0.2"}
{"Molecule": "hsaC (Mycobacterium tuberculosis, UniProt P9WNW7)", "target or system": "Cc1ccc(O)c(O)c1CC[C@@H]1C(=O)CC[C@]2(C)[C@@H]([C@H](C)C(=O)SCCNC(=O)CCNC(=O)[C@H](O)C(C)(C)COP(=O)(O)OP(=O)(O)OC[C@H]3O[C@@H](n4cnc5c(N)ncnc54)[C@H](O)[C@@H]3OP(=O)(O)O)CC[C@@H]12", "assay": "steady-state kinetics", "setting": "pH 7.5, 25 °C", "measurement": "kcat/Km", "result": "2.1e+07 M⁻¹ s⁻¹"}
{"Molecule": "GFCRCFCGRSSCDCICTR (peptide; cyclic, three disulfides)", "target or system": "lef (Bacillus anthracis, UniProt P15917)", "assay": "FRET substrate cleavage, enzyme inhibition assay", "test system": "peptide", "measurement": "Ki", "result": "1170 ± 92 nM"}
{"Molecule": "B2 (env gp140)", "target or system": "CD4 fragment (Homo sapiens)", "assay": "SPR", "measurement": "Kd", "result": "684 nM"}
{"Molecule": "YGRKKRRQRRRGSGMSPRREALYRGFRASYDVLRH (TAT peptide 47-57 (HIV-1); N-terminal fluorescein)", "target or system": "SCN5A 1773-1940 (Homo sapiens, UniProt Q14524)", "assay": "FP", "test system": "designed binder", "measurement": "Kd", "result": "890 nM"}
{"Molecule": "Ac-EFQLQ-pNA (N-acetyl, C-pNA; pNA = O=[N+]([O-])c1ccc(N*)cc1)", "target or system": "ORF1 3C-like protease", "assay": "substrate, pNA substrate cleavage", "setting": "pH 8.5", "measurement": "kcat/Km", "result": "463 M⁻¹ s⁻¹"}
{"Molecule": "Ac-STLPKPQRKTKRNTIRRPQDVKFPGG (HCV core protein residues 2-27 (hepatitis C virus); N-terminal acetylation)", "target or system": "Acy3 (Mus musculus, UniProt Q91XE4)", "assay": "SPR", "test system": "peptide", "measurement": "Kd", "result": "170000 ± 13000 nM"}
{"Molecule": "DDLDALLADKE (PXN 2-10)", "target or system": "E6 (UniProt P06931)", "assay": "SPR", "test system": "peptide", "measurement": "koff", "result": "0.0017 s⁻¹"}
{"Molecule": "QEDIIRNIARHLAQVGDSMDRSIPPG (BID 79-104 (Homo sapiens, UniProt P55957); sequence looked up)", "target or system": "BHRF1 1-160 (Epstein-Barr virus, UniProt P03182)", "assay": "ITC", "test system": "peptide", "measurement": "Kd", "result": "300 ± 100 nM"}
{"Molecule": "B3 (E2 DNA-binding domain 279-365)", "target or system": "BRD4 (Homo sapiens, UniProt O60885-2)", "assay": "pull-down", "measurement": "binding", "result": "binds"}
{"Molecule": "Ac-DEFQLQ-pNA (N-acetyl, C-p-nitroanilide; pNA = O=[N+]([O-])c1ccc(N*)cc1)", "target or system": "ORF1 3C-like protease", "assay": "substrate, pNA substrate cleavage", "setting": "pH 8.5", "measurement": "kcat/Km", "result": "416 M⁻¹ s⁻¹"}
{"Molecule": "BM2 transmembrane peptide (Influenza B virus)", "assay": "solid-state NMR, measured: His19", "test system": "VM+ membrane pellets", "setting": "243 K, average of four tetrad pKa", "measurement": "pKa", "result": 5.1}
{"Molecule": "Crebbp fragment (Mus musculus) (sequence not shown)", "target or system": "E7 fragment H9C/C24A, pS31/pS32, TEMPO label C9 (human papillomavirus 16)", "assay": "paramagnetic relaxation enhancement NMR", "measurement": "binding", "result": "binds"}
{"Molecule": "B4", "target or system": "E7 1-51, pS31/pS32 (HPV16, UniProt P03129)", "assay": "NMR", "measurement": "binding", "result": "binds"}
{"Molecule": "B5 (BHRF1 1-160)", "target or system": "BECN1 90-171 (Homo sapiens, UniProt A0A024R1X5)", "assay": "ITC", "measurement": "ΔH", "result": "1.72 ± 0.478 kcal/mol"}
{"Molecule": "Vif fragment (HIV-1) (sequence not shown)", "target or system": "PPP2R5A (Homo sapiens, UniProt Q15172-1)", "assay": "cryo-EM", "measurement": "binding", "result": "binds"}
{"Molecule": "nsp16 (SARS-CoV-2, UniProt P0DTD1)", "target or system": "itself", "assay": "cross-linking", "measurement": "subunits per oligomer", "result": 3}
{"note": "Some of these lines once more:"}
{"Molecule": "Ac-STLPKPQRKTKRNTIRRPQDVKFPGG (HCV core protein residues 2-27 (hepatitis C virus); N-terminal acetylation)", "target or system": "Acy3 (Mus musculus, UniProt Q91XE4)", "assay": "SPR", "test system": "peptide", "measurement": "Kd", "result": "170000 ± 13000 nM"}
